Experimental data collected from several papers.
Lines come from different studies, so protocols differ.
Target: Serine/threonine-protein kinase 4 (STK4, Homo sapiens, UniProt Q13043)

With `Cc1cccc(O[C@H]2CCC[C@@H](C(C)CNCc3ccncc3)C2)c1` (relative stereo) the inhibition was 3% (kinase activity, kinome panel screening; 1 µM).
With `C=CC(=O)Nc1cccc(-c2cnc3[nH]cc(C(=O)NC(C)(C)C)c3n2)c1` the inhibition was 79% (enzyme activity, inhibitor; 0.1 µM).
For `C=CC(=O)N1CCc2ccc(-n3c(=O)ccc4cnc5ccc(-c6cnn(C)c6)cc5c43)cc21`, the remaining binding was 100% (KINOMEscan; 1 µM; relative to: DMSO control).
The remaining binding of `Nc1ncc2c(n1)-c1c([nH]c3ccc(C4=CCOCC4)cc13)CCC2` is reported as 100% (binding, competition with immobilised ligand; 1 µM).
The inhibition of `NC(=O)C[C@H]1CCc2sc3ncnc(O[C@H]4CC[C@H](N5CCOCC5)CC4)c3c21` is reported as 8% (enzyme activity, inhibitor; 10 µM).
With `CNC(=O)C1CCN(c2cc(C)c(F)cc2NC(=O)c2ccc(-c3cc(O)ccc3C)c(C)c2)CC1` the remaining binding was 100% (binding, competition with immobilised ligand; 1 µM).
`CNC1C[S+]2CC[S+]3CC[S+](C1)[Ru-4]321([N]=C=S)[n]2c3ccc(OC)cc3c3c4c(c5cc(F)c[n+]1c5c32)C(=O)NC4=O` (centres unmarked) has a remaining binding of 100% (KinomeScan; 0.1 µM; relative to: untreated).
For `COc1ccc(NC(=O)Nc2ccc3c(c2)C(=O)N(C(C)CO)CC(C)C(CN(C)Cc2ccc4c(c2)OCO4)O3)cc1` (centres unmarked), the remaining activity was 87% (kinase activity, KinaseProfiler; 0.03 µM, species human; relative to: control).
With `Cc1ccc(-c2c(/C=C(\C#N)C(=O)NC(C)C)n(CCCO)c3ncnc(N)c23)cc1` the remaining binding was 77% (binding, competition with immobilised ligand; 1 µM).
`CNC(=O)C[C@H](Cc1ccc(C#N)cc1)NC(=O)c1cc(-c2ccc(CN[C@H](C)c3ccc(C)cc3)o2)ccc1Cl` — result for “activity vs control”: 93% (enzyme activity, inhibitor; 1 µM).
For `CCn1cc(C(=O)O)c(=O)c2c(N)c(F)c(NC3CCCCC3)cc21`, the inhibition was 10.1% (kinase activity; 0.1 µM, together with: ATP at Km).
`COc1c(Cl)cccc1Nc1c(-c2ccncc2C#C[C@@]2(C)CCCN2C(=O)/C=C/CN(C)C)[nH]c2c1C(=O)NCC2` has a remaining binding of 89% (binding, competition with immobilised ligand; 3 µM).
The inhibition of `C=CC(=O)N1Cc2nc(-c3cc(-c4cc(Cl)cnc4Cl)c(F)cc3F)n(-c3ccncn3)c2C1` is reported as 9.3% (cell-free assay, inhibitor; 1 µM).
Under “activity vs control”, `O=C(Cc1ccc(OCc2ccccc2)cc1)NC1(C(=O)O)CCN(C(=O)c2ccc(-c3cccc(Cl)c3)cc2)CC1` is recorded as 107% (enzyme activity, inhibitor; 10 µM).
For `Cc1ccc(C(=O)Nc2ccc(CN3CCN(C)CC3)c(C(F)(F)F)c2)cc1C#Cc1cnc2cccnn12`, the Hill slope was 1.64 (target engagement, NanoBRET; human cells).
`Cc1cnc2nc1Nc1cccc(c1)COC/C=C/COCc1cc(ccc1OCCN1CCOCC1)N2`: “percent of control” 100% (concentration not given, gene name MST1).
For `COc1cc(Nc2nc(C)cc(-c3cnn4nc(OC)ccc34)n2)cc(C(F)(F)F)c1`, the remaining activity was 85% (inhibitor; 1 µM, MST1; relative to: control).
